Published values pooled from the literature.
Numbered parts are unrelated; each lists some results of a single study. Substitutions count along the parent as printed.

Block 1 — method: aptamer microarray, sandwich; molecule type: DNA with 2'F-ANA; matrix: in vitro; tested at: 200 nM; added: Cy3 exosite-II aptamer, 400 nM; direction: higher = stronger binding; sequence: GGTTGGTGTGGTTGG
Target: Prothrombin, mature alpha-thrombin (F2, Homo sapiens, UniProt P00734)
Notes: whole 15-mer aptamer, many near background
Modification	mean fluorescence intensity [a.u.]
2'F-ANA at 1 2 3 4 5 9 13 14	48.2
2'F-ANA at 1 3 6 11 14 15	74
2'F-ANA at 1 2 9 11 13 14	60.4
2'F-ANA at 2 8 9 10 11 13 14 15	76.2
2'F-ANA at 2 4 6 12 13	423
2'F-ANA at 1 3 4 5 7 10 12	340
2'F-ANA at 2 3 4 6 8 13 14 15	374
2'F-ANA at 2 4 7 15	416
2'F-ANA at 3 5 6 7 9 10 12 14	49.9
2'F-ANA at 1 2 3 4 6 7 8 10 11 14 15	51.8
2'F-ANA at 1 3 6 8 9 10 14	58.8
2'F-ANA at 1 6 8 9 13 15	152
2'F-ANA at 3 5 8 9 13 15	133
2'F-ANA at 2 5 8	82.5
2'F-ANA at 1 3 4 5 7 8 9 10 14 15	60.5
2'F-ANA at 2 3 4 8 9 13	483
2'F-ANA at 2 5 6 9 11 12 13 14 15	49
2'F-ANA at 2 4 8 12 14 15	154
2'F-ANA at 1 2 3 4 6 9 11 12 14 15	62.3
2'F-ANA at 2 4 6 9 11 13	148
2'F-ANA at 2 4 5 6 8 11 12 14	62.5
2'F-ANA at 1 2 4 5 6 7 8 9 12	185
2'F-ANA at 6 8 9 10 13 15	133
2'F-ANA at 1 2 4 5 6 10 12 13 14	44.9
2'F-ANA at 2 3 4 6 9 13	310

Block 2 — target: CCNE1, cyclin fold, Cln2 fusion (human); method: yeast growth competition, sequencing; matrix: yeast; notes: strong parent motif; reference: not given; direction: higher = stronger binding
Starting sequence: RBL1 docking peptide (human); GSAKRRLFGEDPP; partner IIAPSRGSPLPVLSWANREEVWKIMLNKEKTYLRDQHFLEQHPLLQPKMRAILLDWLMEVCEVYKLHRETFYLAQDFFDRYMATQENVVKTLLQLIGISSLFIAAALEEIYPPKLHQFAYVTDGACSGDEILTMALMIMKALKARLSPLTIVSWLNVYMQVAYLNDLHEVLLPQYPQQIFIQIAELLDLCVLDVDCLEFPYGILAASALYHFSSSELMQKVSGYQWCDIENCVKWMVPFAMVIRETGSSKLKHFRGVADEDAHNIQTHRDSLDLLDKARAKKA
Substitution	normalised enrichment score
GSAKYRLFGEDPP [R5Y]	0.448
GSAKRRLFGECPP [D11C]	5.3
GSVKRRLFGEDPP [A3V]	7.55
GSAKRRLFGADPP [E10A]	5.11
GSAKRRLTGEDPP [F8T]	0.212
GLAKRRLFGEDPP [S2L]	4.53
GSAHRRLFGEDPP [K4H]	1.07
GSAKRRLFGEDPY [P13Y]	5.58
GSAKRRLLGEDPP [F8L]	0.527
MSAKRRLFGEDPP [G1M]	6.25
GSAKRRLFGEDIP [P12I]	5.99
GSAKRRLFEEDPP [G9E]	6.94
GSAKRRGFGEDPP [L7G]	0.0953
GSAKRRLFDEDPP [G9D]	6.79
GSAKRRLFGRDPP [E10R]	3.29
GSADRRLFGEDPP [K4D]	0.000382
GKAKRRLFGEDPP [S2K]	6.04
GSAKRRLFGETPP [D11T]	6.15
GSAKRRLFGEDEP [P12E]	7.31
GSAARRLFGEDPP [K4A]	3.74
GSAKRRLFTEDPP [G9T]	7.26
GMAKRRLFGEDPP [S2M]	5.25
SSAKRRLFGEDPP [G1S]	6.72
GSKKRRLFGEDPP [A3K]	0.507
GSAKRRLFGEDPD [P13D]	6.54

Block 3 — method: Spec-seq; molecule type: double-stranded DNA, one strand shown; matrix: in vitro; tested at: not given; notes: whole probe, mean of replicates; reference: not given; direction: lower = stronger binding; shared flanks, not repeated: GAGTCGTCTCGTCAGCAC … CCGTAGAGCACTCAGGTC
Target: POU, POU domain (Salpingoeca helianthica)
Residues (chain): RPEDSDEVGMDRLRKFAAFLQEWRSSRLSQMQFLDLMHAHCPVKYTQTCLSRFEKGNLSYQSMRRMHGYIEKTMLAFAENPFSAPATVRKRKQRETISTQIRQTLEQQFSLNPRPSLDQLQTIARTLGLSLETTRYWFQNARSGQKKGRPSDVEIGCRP
Sequence	relative binding energy [ln ratio]
ATATTGAT	0.818
ATGCTACA	1.12
AGAATAAT	0.291
AACATAAT	0.3
CACCTAAT	0.699
GCACTAAT	0.661
TGTATAAT	0.328
ATGCCAAT	1.27
ATGCCTTT	0.97
ATCCTTAT	0.784
ATCGAAAT	1.15
GCTCTAAT	0.774
ATGTACAT	1.29
TGAATAAT	-0.0322
ATGAGTAT	1.15
GTAATAAT	-0.486
ATGCACCG	1.36
ATAGTTAT	-0.663
ATGCGACC	1.43

Block 4 — method: protein binding microarray; molecule type: double-stranded DNA, one strand shown; matrix: in vitro; tested at: not given; reference: not given; direction: higher = stronger binding
Target: Histone acetyltransferase KAT6A, both winged helices, GST fusion (KAT6A, Homo sapiens, UniProt Q92794, residues 1-181)
Notes: 8-mer, flanks averaged, mean of 2 arrays, mostly near background
Construct (chain): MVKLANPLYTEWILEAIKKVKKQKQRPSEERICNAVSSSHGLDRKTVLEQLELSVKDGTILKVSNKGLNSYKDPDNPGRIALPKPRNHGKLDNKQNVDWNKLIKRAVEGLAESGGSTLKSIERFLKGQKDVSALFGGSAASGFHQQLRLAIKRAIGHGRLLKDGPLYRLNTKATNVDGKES
Sequence	E-score
ACACTCAG	-0.103
ACAAGCCC	-0.0461
CATGGCAC	0.0686
CCCCTGCC	-0.0878
ATGACCTC	-0.0945
GCCGACTA	0.147
AGGCTGAT	-0.201
GGTAGAAA	0.0321
ACATTCGC	0.213
GAGCAATA	-0.261
ATCTGGGA	-0.155
GGTGCAAA	-0.0818
CGATAGGC	0.0934
ACTTCTCT	-0.129
ATTATAAG	-0.12
ACTGAATA	-0.195
ACAAGTTC	-0.0993
AGCACGAT	-0.178
GACCAACA	-0.0919
ACTTTGCT	-0.0382
ATTGATTC	0.106
ATCCACTC	-0.231
AGTCCTCG	-0.247
CAACCCTG	-0.111
AGAGGCCC	-0.131

Block 5 — method: RNA Bind-n-Seq; molecule type: RNA; matrix: in vitro; tested at: 365 nM; reference: no-protein control; direction: higher = stronger binding
Target: RNA binding protein fox-1 homolog 2, RRM domain, GST-SBP tag (RBFOX2, Homo sapiens, UniProt O43251-10, residues 100-194)
Notes: natural RNA segment, single round, ends assumed
Shared flanks, not repeated: GGGAGUUCUACAGUCCGACGAUC … UGGAAUUCUCGGGUGCCAA
Construct (chain): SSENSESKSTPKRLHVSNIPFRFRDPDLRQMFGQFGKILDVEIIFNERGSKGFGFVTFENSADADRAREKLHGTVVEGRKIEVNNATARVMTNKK
Sequence	RBNS enrichment (R)
GUACAUGACUGUAUAAUUACGAUUAUAGUACCACUGCACAUCAUGUUUUUUUUUUUAAGACAAAAAAGAUGUUUAAAGACCAAAAACUGUGCUGAGAAAGUAUGCCCCAC	0.574
UUAUGCCAAGAAAAGCAUACUAUAAAGCAAAUAUCUAUUAUUCUCCUAAACGAAUGCCUAGCAUAGAGAAAAUACUUAAUACACAUUUGUUGACUUAAAUUUAAUUCAAG	0.524
UCAUUAAAAAACAAAUUCAGAUGAAAUAUCAGUAACUGUCUUGGACAGUGCUGAAAUCAGGUGGUUAAACGGGUAAACAAAAUAUACUGUAUUUUGAGAAAUGGCACAAA	0.316
CAUUUAAAGCCAGAUAGGGCACCCUUGCUGUGUCAAUGAGGAAGUUACUGUAAACACAGUGUUCGACUGAAGCUAGAGUGCAGAGUCGCAGCACUGCUGACUGCCUGCCU	0.707
ACAUACAUACCUGUACAUAUUUAGAUAUAAGCUGCUAUAUGUUGAAUGGACCCUUUUGCUUUUCUGAUUUUUAGUUCUGACAUGUAUAUAUUGCUUCAGUAGAGCCACAA	1.06
UUUAAGAUAGGACUAAGAGUUCAUCUCCUUCUAGAAGGCCCCCAGGUUAAAUAAAAACACUUGGGGGUAAGAGGGCUUUCUUCAGAGACUCCCAGGUGGGAGUGCCUCUA	0.253
CCUGCCCCCCACCCUGCUCCCACAUCUGGGGGCCCAUGGGCCAGGAGUGGAUAAGCCUGCAUUAAUACAACCUUUCUCCAUUCACUUUCUAUUUACAAAUUAGGAAAGCA	0.447
UGGGGACUUCCUUCGUCAGCACUGGCUUUCUGUUUUCACAAGACAGACGUCUGUCCCGCUGCUCUCUCCCCAUCUCCUACCCCACAUCCUGUCUUAGCCGCAGUCUCCAG	0.535
UUCAGAUGCCCAUCUUCUGCAGUUACCAAGGAAGAGAGAUUGUUCUGAAGUUACCCUCUGAAAAAUAUUUUGUCUCUCUGACUUGAUUUCUAUAAAUGCUUUUAAAAACA	1.01
CUGUAAACCUUUGUUGCCGCCGCAGGAAGCUGAGGCCAGCUUGUGUGUGAGCACUGGAGUGUCCAGAGCCCUGCACACUCGGGGUGGGGGGCGGGGUACUCUCCCUGUCG	0.19
AUGGCUGUGGCCUGAAGUUGCACUUGCAAAGGUCCUGCUUCUACAGGACGCUGAGGUACUUACUACCCUGGUCUCGGGAACUGCCUGCCUAGGGCAACAGAUGUCCUGAC	0.233
GACAACUGUAAAGAAAUCAAGCUGGCUGACUGUAUGAUUGCUAUUUACUUAAAGUUGACAACGUUAAUGAGUAAUUCCCCUCACCCCCCAAAAAAACAAUGUUAUUACUU	0.579

Further values, each from its own experiment
Substance	target	test	system	conditions	scale	endpoint	value
PhoQ, residues 284 288 289 292 302 303 AMDMFI	PhoP, residues 12 14 15 18 19 LWHSL (Escherichia coli, UniProt P23836)	Sort-seq, item: YFP reporter	E. coli	PhoQ-PhoP variant library, added: 10 µM Mg2+	reference: high Mg2+ state, higher = stronger signaling	fold induction	0.755

Some of these lines once more (block 2):
Substitution	normalised enrichment score
GSAKRRLFEEDPP [G9E]	6.94
MSAKRRLFGEDPP [G1M]	6.25
GSAKRRLFGEDIP [P12I]	5.99
GSAKRRLFGEDPY [P13Y]	5.58
GSAKRRLTGEDPP [F8T]	0.212
GSAKRRLFDEDPP [G9D]	6.79
GSKKRRLFGEDPP [A3K]	0.507
GSAKRRLFGEDEP [P12E]	7.31
GSAKRRLLGEDPP [F8L]	0.527
GSVKRRLFGEDPP [A3V]	7.55
GMAKRRLFGEDPP [S2M]	5.25
GSAKYRLFGEDPP [R5Y]	0.448
GSAKRRLFGECPP [D11C]	5.3
GSAARRLFGEDPP [K4A]	3.74
GSAKRRLFTEDPP [G9T]	7.26
